Published values from different studies.
Each numbered part is a random draw from the data of one study; scales do not carry over between parts.

Series 1
Target: Protein C-ets-1 (ETS1, Homo sapiens, UniProt P14921, residues 1-441, full length assumed)
Technique: protein-binding microarray
Form: double-stranded DNA, one strand shown
Medium: in vitro
Concentration: not given
Setting: k-mer, scored over probes, only values ≥0.25
Direction: higher = stronger binding
Residues (chain): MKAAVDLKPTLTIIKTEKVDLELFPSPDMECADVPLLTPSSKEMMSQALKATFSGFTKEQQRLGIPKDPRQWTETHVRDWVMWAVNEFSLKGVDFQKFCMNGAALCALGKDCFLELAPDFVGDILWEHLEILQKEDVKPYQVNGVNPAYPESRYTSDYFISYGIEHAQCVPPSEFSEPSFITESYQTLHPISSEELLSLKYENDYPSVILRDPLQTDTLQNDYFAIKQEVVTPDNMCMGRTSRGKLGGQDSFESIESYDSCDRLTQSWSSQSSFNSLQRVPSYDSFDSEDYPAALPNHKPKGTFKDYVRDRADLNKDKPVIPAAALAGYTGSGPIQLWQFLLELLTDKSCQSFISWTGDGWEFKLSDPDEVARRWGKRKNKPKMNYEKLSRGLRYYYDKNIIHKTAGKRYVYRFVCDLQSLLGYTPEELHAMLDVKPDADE
Sequence	E-score
ACATTTCC	0.446
ATCCGGAT	0.467
ACCCCGGA	0.378
CGCTTCCG	0.48
AGGATACA	0.265
CGGAAGCC	0.47
GCATCCGA	0.405
CTTCCTGA	0.425
GGAAACGA	0.422
AGGAAGTC	0.455
AGCATCCT	0.407
AAGATCCG	0.363
TAAGGAAA	0.322
CGGCATCC	0.418
CCAGGAAC	0.254
AATGTCCG	0.312

Series 2
Target: Interferon regulatory factor 7, full length, phosphomimetic (IRF7, Homo sapiens, UniProt Q92985, residues 1-503, S471D/S472D/S475D/S476D/S477D/S483D/S484D/S487D)
Chain of UniProt Q92985 (whole entry, unmodified, looked up): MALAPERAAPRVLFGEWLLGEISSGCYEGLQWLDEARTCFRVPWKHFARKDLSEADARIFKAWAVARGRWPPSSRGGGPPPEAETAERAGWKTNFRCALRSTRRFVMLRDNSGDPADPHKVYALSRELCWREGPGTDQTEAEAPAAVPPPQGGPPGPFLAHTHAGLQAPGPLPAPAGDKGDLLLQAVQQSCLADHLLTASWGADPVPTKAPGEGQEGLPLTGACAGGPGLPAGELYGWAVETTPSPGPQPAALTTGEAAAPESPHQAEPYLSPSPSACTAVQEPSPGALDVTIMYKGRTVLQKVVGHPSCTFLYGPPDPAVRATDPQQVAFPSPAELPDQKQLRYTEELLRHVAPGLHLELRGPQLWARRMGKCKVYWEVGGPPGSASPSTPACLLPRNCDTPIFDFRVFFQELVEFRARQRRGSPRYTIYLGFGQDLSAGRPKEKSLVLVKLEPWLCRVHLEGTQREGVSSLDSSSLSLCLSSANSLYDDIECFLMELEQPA
Technique: protein-binding microarray
Form: double-stranded DNA, one strand shown
Medium: in vitro
Concentration: 2200 nM top
Setting: 60-bp whole probe
With: salmon DNA 0.4 mg/ml
Reference: random background probes
Direction: higher = stronger binding
All sequences stand within: GCCTAGCAC … GTCTTGATTCGCTTGACGCTGCTG
Sequence	fitted relative affinity
TTAGATACCAGTATCGATTAGTGCTAG	0.417 z-score
GACTAACTGGGGTATCGAGACGTGCTA	0.0213 z-score
TCAAAGATTCCTCTCACACTGTGCTAG	0.565 z-score
CTAGATATCGGGTATCGATTAGTGCTA	0.335 z-score
GCTTTCCCCTTGGACTCTTTGTGCTAG	4.4 z-score
GATGAACTGAGTATCGAGACGTGCTAG	-0.0305 z-score
AACGGACTGGGGTTTCGGGACGTGCTA	0.772 z-score
TTAGGTCTCCTTATCCTCTAGTGCTAG	1.09 z-score
TGTTCTTTTCTGTTGTCTGTGTGCTAG	3.35 z-score
GACAGTATCGGTCTCGGGACGTGCTAG	0.476 z-score
GTCGATTTCAGACTGGAGACGTGCTAG	0.882 z-score
TTAGGACTGGACTTTCGCTTAGTGCTA	3.12 z-score
GACGGTTTCCTTCTTCTGACGTGCTAG	2.83 z-score
GACGGCATCCTTTTCCTGACGTGCTAG	1.03 z-score
GACGATATCACTATCGAGACGTGCTAG	0.646 z-score
TCCCCTCTAGGTCTTCTGAAGTGCTAG	0.33 z-score
AACGATTTCGGGACTGGAGACGTGCTA	1.37 z-score
TTAGGTAGCGGGACTGGGTTAGTGCTA	-0.837 z-score
GACGAACTGGGGTAGCGAGACGTGCTA	-0.221 z-score
TCTGGTTCCCATTCCAGGGTGTGCTAG	2.14 z-score

Series 3
Target: RNA binding protein fox-1 homolog 2, RRM domain, GST-SBP tag (RBFOX2, Homo sapiens, UniProt O43251-10, residues 100-194)
Technique: RNA Bind-n-Seq
Form: RNA
Medium: in vitro
Concentration: 365 nM
Setting: natural RNA segment, single round, ends assumed
Reference: no-protein control
Direction: higher = stronger binding
Target sequence (chain): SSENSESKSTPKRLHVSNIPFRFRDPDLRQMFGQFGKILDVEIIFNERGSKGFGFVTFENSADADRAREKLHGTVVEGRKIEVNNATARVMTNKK
Sequence	RBNS enrichment (R)
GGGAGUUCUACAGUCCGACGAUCAUCAGACCCUGAGAGGGGAAAAUCUUAAAGUAAAUUACAUUAAAUUAUCUGUGCAUUUCACACCAGGGAAAAUGACCUCCUUUUGGAAGUGUUUUAUGGCUGCUUUCUUUUGGAAUUCUCGGGUGCCAA	0.495
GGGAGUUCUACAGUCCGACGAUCAAUGAGAAGCCAAGCUUUAAAUAGCAAACUACAGGGUAUUAAAAGACUAACUCUUCAGUUAAGAACACUGUAGAAAUGGUAGACCAACUUAAAGUCUACCUUUUAACAAUUGGAAUUCUCGGGUGCCAA	0.355
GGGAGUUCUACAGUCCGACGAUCCCACUGCCAAAGGCAGAAUUUAAACUAGGGGCUGAGGGAUAGCUCCGAGUAAUGUCCAAUGCUGGGAGUUGGUCAGUUCAGAACCAAUUGUGUCGGUAAAAAACCAAGGGUGGAAUUCUCGGGUGCCAA	0.785
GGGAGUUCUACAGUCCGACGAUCUUGAAGACAUUACAGAAAUGAAGGUGUGUUCAUGGGUCAAUAACAGCAAAGUAAUUAUGGACCAAUAACUAUGUUCACCCUGAAACUUUUAUGCCACCAAUCACCAAAAAUGGAAUUCUCGGGUGCCAA	0.343
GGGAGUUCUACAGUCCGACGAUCGAGCUAAUGAAGGGCCCUGCCUAGAUCCAGACUUUCUGACAUCAAAUUAGGGAAGUGGAGGAAAUUAUUUGGAAUGUGAUCUAAGUUUUUGUUUUUUUUUAAUGUGUCAAUGGAAUUCUCGGGUGCCAA	1.49
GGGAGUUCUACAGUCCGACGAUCGUUUGGUAUUUUUUAAGGUAUGUCUCCCUGUUUGCACUCAGGGUUAAAGUGUCAGACUAAAUUUUUAGAAGAAAACAGAAAUUCAGGUGUGUGUUCAUUAUAGGUUAUUCUGGAAUUCUCGGGUGCCAA	2.49
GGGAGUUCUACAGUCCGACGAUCGUAACAGGACUUGGUAGUUUCCACCUAGGAAAACCGAGCUCUCUGGUGUGGUUCGCAGUACUGAGGGCAGGGCUGGUGCCUUGCUGCUCUGUUCCAAACAGGCCAGUGGAUGGAAUUCUCGGGUGCCAA	0.319
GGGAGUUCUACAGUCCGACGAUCGGUCUCGGCACGGAGCUCUCGAGGCUGUGCAGACCUGCUCGUGGAGGGCUUAGGCUGUCUUAGGUGCACACUUGCACGGUCUCCAUGGCCUCCGUGAGCAUCUUUGUAGCUGGAAUUCUCGGGUGCCAA	0.371
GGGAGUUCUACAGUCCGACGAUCGCCCAACAGUAUAGCUGGGUGAACAUCUCUAGCUAGCAUAUGCUAUAUAUGUCCUCACAUACCUCUGCUGGAAGGACAGAGCGCUGUCUUAUGACUGGUAAGAGGGAGUGUGGAAUUCUCGGGUGCCAA	0.387
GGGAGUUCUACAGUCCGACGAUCAAGUGGACCUAAGUGGCCGAGAGAGGAGGGUCUGGCCUCCUUGGCCCCCCAUCUUGCUUUCCCAGGGGCUGGCUUAUUGACAUUCCUCACAUGUUCUGAGUAUGGAACCUUGGAAUUCUCGGGUGCCAA	0.404
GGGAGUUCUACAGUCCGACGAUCUUACAAAGGCUGUAUUCAGCAAGGCGCUAACUUGCUUAAAUGUGAAUUACUAACUUCUAAAACUGUACUUUGAUUCACAUGUUUUCAAAUGGAGUUGGAGUUCAUUCAUAUGGAAUUCUCGGGUGCCAA	0.236
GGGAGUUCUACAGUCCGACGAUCGGAGGUGGCCCUGCCGGCUCCGCGCUGCUGUGCCUGUGAUCCCUACCUGCUCCCCGCUCCUGUUGCCAGCAGCACUCACUGCACUCCUUUGUCAUAUACUCUGCAUCACUUGGAAUUCUCGGGUGCCAA	1.35

Series 4
Target: RING finger protein unkempt homolog, zinc fingers 1-6, SBP tag (UNK, Homo sapiens, UniProt Q9C0B0, residues 30-357)
Chain of UniProt Q9C0B0 (30-357, looked up): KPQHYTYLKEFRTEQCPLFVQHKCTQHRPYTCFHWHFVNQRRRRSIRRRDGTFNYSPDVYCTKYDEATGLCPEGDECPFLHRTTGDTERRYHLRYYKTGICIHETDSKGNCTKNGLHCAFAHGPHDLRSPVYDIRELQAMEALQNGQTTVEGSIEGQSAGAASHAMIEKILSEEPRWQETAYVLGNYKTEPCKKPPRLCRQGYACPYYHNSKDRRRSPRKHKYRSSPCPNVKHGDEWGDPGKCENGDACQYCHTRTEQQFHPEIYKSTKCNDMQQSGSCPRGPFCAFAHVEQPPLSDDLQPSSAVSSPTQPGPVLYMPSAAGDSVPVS
Technique: RNA Bind-n-Seq
Form: RNA
Medium: in vitro
Concentration: 100 nM
Setting: RNA with constant flanks, vertebrate orthologous sites, ends assumed
Reference: input RNA pool
Direction: higher = stronger binding
Sequence	bound/input enrichment [ratio]
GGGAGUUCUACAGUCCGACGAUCCUCCGCCACCCCUGGGUGCCUGACUCCAGUGAAGCACUCACCAGUGCUGCAAGGGGUCCAGAGUAUUUUUUUGCUGCUUCAGUCCCCAAUGCCUUCCAGCAGAAGUGGCAGUAGACUGUUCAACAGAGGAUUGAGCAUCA	0.303
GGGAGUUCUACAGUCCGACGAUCUUGUCUGCCUCAUUCUAAAAUUUACACAGUAGACAUUUGUCAUCCAUGCUGUCCCACAAAUAGUUUUUUUGUUUACGAUUUAUGACAGGUUUAUGUUACUUCUAUUUGAAUUUCUAUAUUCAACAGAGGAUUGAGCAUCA	2.91
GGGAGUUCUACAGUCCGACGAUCCUCAUUUCCAGGUUGGACCUACUGGAAAAGUCGUAGGAAUUGACCACAUUAAAGAGCUGGUAGACGACUCAAUAAAUAACGUCAGAAAGGACGAUCCGAUGCUUCUGUCUUCAGGGAGAGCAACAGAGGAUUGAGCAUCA	0.623
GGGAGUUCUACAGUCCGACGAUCUCUGCCUAGCGAUUAGAGUGGGUUCUCCCCCUCGUCCUGUCACAAGGAAGAAAGCUCAAAUAGGUUCUUUACACAUCGGAUUAUGCUGUUCUGUUUCCGUUUUCUAUAUUCACAUAUACACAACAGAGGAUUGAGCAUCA	0.506
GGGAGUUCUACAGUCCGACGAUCGAGUGCUUAAGCCGCCAACAGUUAGAAGAUGCUAUUUAUUUGUGUCUGUAAGUUUGUACAUAGUAAUGCCAACCUUGUUGCUGAAUUUUUUAUUUGUGGGGGAUGAGUUUGAAUUUUGUUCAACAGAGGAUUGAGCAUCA	1.51
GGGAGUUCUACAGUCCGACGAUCGAACUAAAGGAGUUAGCAUCUUUAUUUUUGUAUCAAAGAUAAAGGUUAUUUUGAAAUUAUUAGGGUUUUUACACAACUUAAAUCUGUUGCUUUUAUAAACAAAUUGUUUGAUGUAGCGACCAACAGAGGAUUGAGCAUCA	1.26
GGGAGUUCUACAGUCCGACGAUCGCACAUGCCGCUAUCACCAAAAGCAAACUGCCACUUCUCAAAUUUCAUUCAAAGCUGUUUCAGUGUUUCUUAUGCCCUACCCUUCCCACCUACUUUCACUGAUGAGAUAUUCUAAGUUCUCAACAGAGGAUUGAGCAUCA	1.05
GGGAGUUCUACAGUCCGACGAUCAUUUUAAAUGUAUUUAGUUAUAUUUAAUUACCUCAUUCCUGAGUUCCUUUCUCAUUAAAGUAGCUUUCAUUUCUACUACUGCUAGAAGGUUUGUGCCACUAGACACUGUUCCUAAAUUACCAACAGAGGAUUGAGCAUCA	1.14
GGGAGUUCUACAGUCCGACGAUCUCUUUUUCCUUCCUUAUUUACUCCUUCCUUCCUUCUUUUCUUUCAUUUUUUUUUUUUUUGUAGUUGUUGUUACCCACGCCAUUUUACGUCUCCUUCACUGAAGGGCUAGAGUUUUAACUUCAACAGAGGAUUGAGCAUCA	2.86
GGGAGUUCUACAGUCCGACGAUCCUCUAUGGGCCCCGCAGAGUUGAGAUCAUGGAAGAGGAAAGUGAACAGUAACCUUCUCUGUAGUAUUUAUGCUUAGGUGUGAAAUAAACAUUAUUUGUUGAUCACAUGUAUAAUCCGGAGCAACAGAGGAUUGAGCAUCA	0.579
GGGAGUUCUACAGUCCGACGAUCUGUGAGGGUCUACUGACCACUCACUGUUAUGUCUGGUAUCUGUAAACACUCUUUGUUCUUAGUCUUUUCUUGUAUAAUUGAUGUUCUUUAAAAUUGUUAAUGUAUAACAGGGCUUCUGUUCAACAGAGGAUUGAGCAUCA	1.13
